# Assay results gathered from unrelated publications.
# Values joined by “and” are separate records of one study, mostly repeats; a detail may differ. ± marks the error that the study gave.
# Tmem97: Sigma intracellular receptor 2 (Tmem97, Rattus norvegicus, UniProt Q5U3Y7)
# UniProt Q5U3Y7, sequence (whole entry, looked up): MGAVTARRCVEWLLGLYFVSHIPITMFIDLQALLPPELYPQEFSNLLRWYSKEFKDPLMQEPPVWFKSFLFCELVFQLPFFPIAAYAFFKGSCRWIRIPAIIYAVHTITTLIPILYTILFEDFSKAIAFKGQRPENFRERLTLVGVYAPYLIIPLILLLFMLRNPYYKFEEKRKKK
# MAOB: Amine oxidase [flavin-containing] B (MAOB, Homo sapiens, UniProt P27338)
# UniProt P27338, sequence (whole entry, looked up): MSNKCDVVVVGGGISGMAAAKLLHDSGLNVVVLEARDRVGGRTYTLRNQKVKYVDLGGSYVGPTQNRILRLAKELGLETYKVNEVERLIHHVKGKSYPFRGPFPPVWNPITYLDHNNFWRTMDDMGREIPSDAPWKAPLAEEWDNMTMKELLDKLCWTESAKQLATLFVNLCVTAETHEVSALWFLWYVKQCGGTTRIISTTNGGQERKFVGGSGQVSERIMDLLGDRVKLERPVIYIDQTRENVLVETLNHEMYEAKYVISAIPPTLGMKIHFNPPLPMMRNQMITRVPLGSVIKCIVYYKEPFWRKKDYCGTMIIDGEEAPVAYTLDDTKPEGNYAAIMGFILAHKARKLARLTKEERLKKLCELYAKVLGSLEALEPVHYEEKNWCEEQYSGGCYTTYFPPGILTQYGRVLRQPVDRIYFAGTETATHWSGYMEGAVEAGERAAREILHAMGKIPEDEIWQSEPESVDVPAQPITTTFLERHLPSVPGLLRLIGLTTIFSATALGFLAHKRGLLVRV
# TDP1: Tyrosyl-DNA phosphodiesterase 1 (TDP1, Homo sapiens, UniProt Q9NUW8)
# UniProt Q9NUW8, sequence (whole entry, looked up): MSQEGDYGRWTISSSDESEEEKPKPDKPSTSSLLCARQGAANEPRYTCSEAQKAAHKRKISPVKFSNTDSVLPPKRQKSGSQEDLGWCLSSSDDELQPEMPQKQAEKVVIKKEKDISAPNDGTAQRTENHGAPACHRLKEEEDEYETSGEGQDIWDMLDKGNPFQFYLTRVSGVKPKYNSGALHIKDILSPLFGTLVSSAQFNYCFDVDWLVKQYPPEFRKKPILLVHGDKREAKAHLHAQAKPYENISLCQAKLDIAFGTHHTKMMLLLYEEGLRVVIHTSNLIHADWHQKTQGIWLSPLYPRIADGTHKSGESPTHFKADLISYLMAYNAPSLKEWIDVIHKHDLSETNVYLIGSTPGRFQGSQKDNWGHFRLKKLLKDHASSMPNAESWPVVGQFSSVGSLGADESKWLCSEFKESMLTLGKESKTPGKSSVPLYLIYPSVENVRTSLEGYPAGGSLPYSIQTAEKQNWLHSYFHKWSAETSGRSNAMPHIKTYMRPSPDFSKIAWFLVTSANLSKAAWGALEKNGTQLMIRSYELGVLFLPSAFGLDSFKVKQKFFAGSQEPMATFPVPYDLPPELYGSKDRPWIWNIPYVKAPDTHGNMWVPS
# UniProt Q8IAS0, sequence (whole entry, looked up): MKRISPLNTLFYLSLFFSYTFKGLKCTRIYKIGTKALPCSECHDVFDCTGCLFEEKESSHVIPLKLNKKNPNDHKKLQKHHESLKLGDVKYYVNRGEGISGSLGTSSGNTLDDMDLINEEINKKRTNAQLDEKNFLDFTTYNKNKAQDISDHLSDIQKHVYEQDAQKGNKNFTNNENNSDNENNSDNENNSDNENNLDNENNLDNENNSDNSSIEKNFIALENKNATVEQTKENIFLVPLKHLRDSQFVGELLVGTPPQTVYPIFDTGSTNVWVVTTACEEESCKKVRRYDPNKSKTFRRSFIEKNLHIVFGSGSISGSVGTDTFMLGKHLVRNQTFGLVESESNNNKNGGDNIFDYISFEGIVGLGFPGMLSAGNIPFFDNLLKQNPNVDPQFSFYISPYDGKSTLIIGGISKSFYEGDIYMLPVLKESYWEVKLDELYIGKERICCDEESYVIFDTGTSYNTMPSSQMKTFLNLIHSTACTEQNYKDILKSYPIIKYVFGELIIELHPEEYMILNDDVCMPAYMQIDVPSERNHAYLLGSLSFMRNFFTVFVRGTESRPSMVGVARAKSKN
# UniProt O43353, sequence (whole entry, looked up): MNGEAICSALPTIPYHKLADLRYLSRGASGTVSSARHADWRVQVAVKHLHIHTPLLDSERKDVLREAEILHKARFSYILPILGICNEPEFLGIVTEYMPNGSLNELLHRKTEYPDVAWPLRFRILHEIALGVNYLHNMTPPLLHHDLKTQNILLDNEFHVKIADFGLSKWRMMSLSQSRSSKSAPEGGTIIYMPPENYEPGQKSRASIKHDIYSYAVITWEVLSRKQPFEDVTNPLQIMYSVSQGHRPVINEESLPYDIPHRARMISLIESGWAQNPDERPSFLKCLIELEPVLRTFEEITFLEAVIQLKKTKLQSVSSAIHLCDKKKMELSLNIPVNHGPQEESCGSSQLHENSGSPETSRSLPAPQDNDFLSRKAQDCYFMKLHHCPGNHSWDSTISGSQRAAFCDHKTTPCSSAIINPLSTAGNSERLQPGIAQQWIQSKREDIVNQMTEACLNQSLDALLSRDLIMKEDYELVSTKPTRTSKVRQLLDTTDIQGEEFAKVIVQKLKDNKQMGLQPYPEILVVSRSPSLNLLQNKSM
# UniProt Q86U44, sequence (whole entry, looked up): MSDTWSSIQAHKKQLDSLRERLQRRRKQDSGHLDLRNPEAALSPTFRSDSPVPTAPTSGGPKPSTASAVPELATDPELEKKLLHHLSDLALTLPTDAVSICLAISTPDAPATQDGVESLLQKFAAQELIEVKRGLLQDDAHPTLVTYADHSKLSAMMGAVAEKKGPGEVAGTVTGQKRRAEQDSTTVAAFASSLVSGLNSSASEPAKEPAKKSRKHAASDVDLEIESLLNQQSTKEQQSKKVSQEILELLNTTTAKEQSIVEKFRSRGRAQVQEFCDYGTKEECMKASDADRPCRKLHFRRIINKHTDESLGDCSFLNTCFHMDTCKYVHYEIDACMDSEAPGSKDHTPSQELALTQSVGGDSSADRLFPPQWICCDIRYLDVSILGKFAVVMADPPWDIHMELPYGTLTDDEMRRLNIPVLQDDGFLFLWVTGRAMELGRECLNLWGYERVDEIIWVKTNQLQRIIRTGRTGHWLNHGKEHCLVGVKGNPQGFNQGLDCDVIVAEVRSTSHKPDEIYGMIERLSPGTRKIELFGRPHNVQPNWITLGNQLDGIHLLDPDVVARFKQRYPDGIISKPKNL
# UniProt P11712, sequence (whole entry, looked up): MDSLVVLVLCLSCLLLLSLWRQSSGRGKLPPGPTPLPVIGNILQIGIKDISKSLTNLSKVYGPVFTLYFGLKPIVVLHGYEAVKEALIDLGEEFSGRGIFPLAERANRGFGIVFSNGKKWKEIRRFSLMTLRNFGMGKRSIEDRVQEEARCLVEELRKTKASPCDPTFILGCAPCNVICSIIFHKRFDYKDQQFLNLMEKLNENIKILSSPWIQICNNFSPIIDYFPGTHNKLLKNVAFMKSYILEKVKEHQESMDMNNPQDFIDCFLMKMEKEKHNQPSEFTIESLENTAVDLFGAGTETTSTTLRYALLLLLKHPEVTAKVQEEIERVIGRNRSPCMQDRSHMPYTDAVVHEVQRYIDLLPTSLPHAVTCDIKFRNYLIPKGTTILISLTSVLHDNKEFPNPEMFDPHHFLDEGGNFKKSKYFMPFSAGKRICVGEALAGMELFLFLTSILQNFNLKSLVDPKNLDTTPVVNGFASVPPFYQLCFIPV
# UniProt P41146, sequence (whole entry, unmodified, looked up): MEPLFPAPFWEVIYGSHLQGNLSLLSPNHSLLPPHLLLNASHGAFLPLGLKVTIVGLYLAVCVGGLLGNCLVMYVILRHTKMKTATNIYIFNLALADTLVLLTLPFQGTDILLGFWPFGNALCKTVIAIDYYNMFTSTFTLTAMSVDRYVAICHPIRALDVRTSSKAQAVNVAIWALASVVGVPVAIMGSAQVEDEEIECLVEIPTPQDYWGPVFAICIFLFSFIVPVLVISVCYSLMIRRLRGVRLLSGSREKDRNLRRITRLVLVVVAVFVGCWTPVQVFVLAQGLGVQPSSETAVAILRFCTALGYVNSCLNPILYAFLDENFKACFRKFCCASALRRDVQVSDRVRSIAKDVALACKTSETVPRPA
# UniProt P22310, sequence (whole entry, looked up): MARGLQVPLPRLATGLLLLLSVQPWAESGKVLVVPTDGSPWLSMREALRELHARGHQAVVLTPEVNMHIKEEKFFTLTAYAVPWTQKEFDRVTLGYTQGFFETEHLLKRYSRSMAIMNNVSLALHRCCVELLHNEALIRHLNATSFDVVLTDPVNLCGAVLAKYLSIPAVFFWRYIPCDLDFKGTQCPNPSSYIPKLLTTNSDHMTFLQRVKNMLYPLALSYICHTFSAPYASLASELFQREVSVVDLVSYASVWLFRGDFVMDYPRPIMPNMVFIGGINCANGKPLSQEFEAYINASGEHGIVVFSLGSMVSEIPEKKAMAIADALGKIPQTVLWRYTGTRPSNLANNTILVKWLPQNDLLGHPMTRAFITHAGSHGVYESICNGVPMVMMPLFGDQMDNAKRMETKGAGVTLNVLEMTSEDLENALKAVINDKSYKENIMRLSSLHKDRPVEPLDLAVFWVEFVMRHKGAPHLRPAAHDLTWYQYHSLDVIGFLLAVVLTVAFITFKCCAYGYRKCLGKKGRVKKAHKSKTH
# UniProt P13945, sequence (whole entry, looked up): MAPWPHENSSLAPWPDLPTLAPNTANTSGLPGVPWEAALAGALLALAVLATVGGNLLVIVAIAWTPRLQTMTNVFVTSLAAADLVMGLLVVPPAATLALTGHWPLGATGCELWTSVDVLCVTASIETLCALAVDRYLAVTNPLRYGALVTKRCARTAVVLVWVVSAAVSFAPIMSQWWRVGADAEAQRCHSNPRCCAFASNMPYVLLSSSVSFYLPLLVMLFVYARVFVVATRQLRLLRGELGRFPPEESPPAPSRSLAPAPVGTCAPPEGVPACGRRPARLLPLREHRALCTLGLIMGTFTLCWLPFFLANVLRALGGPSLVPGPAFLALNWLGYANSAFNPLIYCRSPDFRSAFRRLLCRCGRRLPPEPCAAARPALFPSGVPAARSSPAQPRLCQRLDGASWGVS
Structure (SMILES),target,test,system,conditions,quantity,result
CN1CC[C@@H](COc2cnc(C#N)cc2-c2ccn3nc(NC(=O)C4CC4)cc3c2)C1,"Receptor-interacting serine/threonine-protein kinase 2 (RIPK2, Homo sapiens, UniProt O43353)","enzyme activity, inhibitor",,,Ki,380 nM
Nc1c(NCC[Se]C[C@H]2O[C@@H](n3cnc4c(N)ncnc43)[C@H](O)[C@@H]2O)c(=O)c1=O,"N6-adenosine-methyltransferase catalytic subunit, with METTL14 (METTL3, Homo sapiens, UniProt Q86U44)",inhibitor,,,Ki,20 nM
OC1Cc2ccccc2CC1N1CCC(c2ccc(Br)cc2)CC1 (racemic),Tmem97,radioligand binding,rat liver,"added: [3H]DTG, 1 µM dextrallorphan mask",Ki,21 ± 1 nM
CCC1(CC)CC(=O)N(C2c3cc(C(=O)NC4c5ccccc5CC4O)ccc3OC2(C)COC)C(=N)N1 (stereo not drawn),"Plasmepsin X (Plasmodium falciparum, UniProt Q8IAS0)","enzyme activity, inhibitor",,,Ki,0.132 nM and 0.13 nM
OC1CCCCC1N1CCC(c2ccc(Br)cc2)CC1 (racemic),Tmem97,radioligand binding,rat liver,"added: [3H]DTG, 1 µM dextrallorphan mask",Ki,13 ± 1 nM
Cc1cc(O)c2c(c1)C(=O)c1cc(O)c(O)c(O)c1C2=O,MAOB,"enzyme activity, inhibitor",,,Ki,50200 nM
Cn1ccc2c(N3CCN(CCCCOc4ccc5c(c4)NC(=O)CC5)CC3)cccc21,"Beta-3 adrenergic receptor (ADRB3, Homo sapiens, UniProt P13945)","ligand displacement, radioligand",,,Ki,> 10000 nM
N#CSCc1ccc(C=NOCc2ccc(-c3nc4cc(-c5ccccc5)ccn4c3Nc3ccc(C(=O)O)cc3)cc2)o1,TDP1,"enzyme activity, inhibitor",,100 µM,inhibition,101%
COc1ccc(-c2coc3cc(O)cc(O)c3c2=O)cc1,"Cytochrome P450 2C9 (CYP2C9, Homo sapiens, UniProt P11712)","enzyme activity, inhibitor","human, liver microsomes",15 min,Ki,15600 nM
CCCC(=O)OC1CCC2(C)C(CCC3(C)C2CC=C2C4C(C)C(C)CCC4(C(=O)O)CCC23C)C1(C)C (stereo not drawn),"UDP-glucuronosyltransferase 1A4 (UGT1A4, Homo sapiens, UniProt P22310)","enzyme activity, inhibitor","human, liver microsomes",,Ki,606 nM
O=C(NCCCN1CCC2(CC1)OCc1ccccc12)C1CCCN1Cc1ccccc1 (stereo not drawn),"Nociceptin receptor (OPRL1, Homo sapiens, UniProt P41146, Q280A)",,,,Ki,28 nM
O=C(O)c1ccc(Nc2c(-c3ccc(CON=Cc4cccc5[nH]ccc45)cc3)nc3cc(-c4ccccc4)ccn23)cc1,TDP1,"enzyme activity, inhibitor",,"100 µM, unpurified compound",inhibition,17.2%
CN(C)c1nc(NCc2ccc(Oc3ccccc3)cc2)c(/N=N/c2ccc(Cl)cc2)c(N(C)C)n1,"Chitinase (OfChi-h, Ostrinia furnacalis, UniProt Q4AE59)","enzyme activity, inhibitor, fluorescence",,,Ki,43.2 nM
Cc1cc(O)c2c(c1O)C(=O)c1cc(O)cc(O)c1C2=O,MAOB,"enzyme activity, inhibitor",,,Ki,10700 nM
O[C@@H]1Cc2cccc(OCCF)c2C[C@H]1N1CCC(c2ccccc2)CC1,Tmem97,radioligand binding,rat liver,"added: [3H]DTG, 1 µM dextrallorphan mask",Ki,2100 ± 1100 nM

# For quick reference, copied from above:
Structure (SMILES),target,test,system,conditions,quantity,result
O=C(O)c1ccc(Nc2c(-c3ccc(CON=Cc4cccc5[nH]ccc45)cc3)nc3cc(-c4ccccc4)ccn23)cc1,TDP1,"enzyme activity, inhibitor",,"100 µM, unpurified compound",inhibition,17.2%
CN(C)c1nc(NCc2ccc(Oc3ccccc3)cc2)c(/N=N/c2ccc(Cl)cc2)c(N(C)C)n1,"Chitinase (OfChi-h, Ostrinia furnacalis, UniProt Q4AE59)","enzyme activity, inhibitor, fluorescence",,,Ki,43.2 nM
